# Results pooled from the literature.
# Numbered parts are unrelated; each lists some results of a single study. Substitutions count along the parent as printed.

# Block 1
# Target: UBE2G2 UBC core domain (UniProt P60604)
# Sequence of UniProt P60604 (whole entry, looked up): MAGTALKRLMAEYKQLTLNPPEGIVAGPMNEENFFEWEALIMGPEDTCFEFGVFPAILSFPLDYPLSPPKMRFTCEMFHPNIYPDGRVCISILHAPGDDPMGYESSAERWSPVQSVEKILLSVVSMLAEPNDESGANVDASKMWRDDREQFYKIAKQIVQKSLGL
# Method: yeast two-hybrid
# Medium: yeast
# Setting: mostly zero background
# Reference: not given
# Direction: higher = stronger interaction
# B1: RNF32 RING domain (UniProt Q9H0A6); chain VQALRRETHECSICLAPLSAAGGQRVGAGRRSREMALLSCSHVFHHACLLALEEFSVGDRPPFHACPLCRSCYQKKILEC
# B2: RNF7 RING domain (UniProt Q9UBF6); chain AICRVQVMDACLRCQAENKQEDCVVVWGECNHSFHNCCMSLWVKQNNRCPLCQQDWVVQRIGK
# B3: TRIM74 RING domain (UniProt Q86UV6); chain SLLELEDWLQCPICLEVFKESLMLQCGHSYCKGCLVSLSYHLDTKVRCPMCWQVVDGSSSLP
# B4: TRIM28 RING domain (UniProt Q13263); chain GAEALELLEHCGVCRERLRPEREPRLLPCLHSACSACLGPAAPAAANSSGDGGAAGDGTVVDCPVCKQQCFSKDIVE
# B5: PJA2 RING domain (UniProt O43164); chain DHTAIGQEQCCPICCSEYIKDDIATELPCHHFFHKPCVSIWLQKSGTCPVCRRHFPPAVIEA
# B6: TRIM68 RING domain (UniProt Q6AZZ1); chain LVEAIVEEVACPICMTFLREPMSIDCGHSFCHSCLSGLWEIPGESQNWGYTCPLCRAPVQPRNLRP
# B7: TRIM32 RING domain (UniProt Q13049); chain NLDALREVLECPICMESFTEEQLRPKLLHCGHTICRQCLEKLLASSINGVRCPFCSKITRITSLTQ
# B8: TRIM2 RING domain (UniProt Q9C040); chain VRQIDKQFLICSICLERYKNPKVLPCLHTFCERCLQNYIPAHSLTLSCPVCRQTSILPEKGV
# B9: TRIM47 RING domain (UniProt Q96LD4); chain MDGSGPFSCPICLEPLREPVTLPCGHNFCLACLGALWPHRGASGAGGPGGAARCPLCQEPFPDGLQLR
# B10: NHLRC1 RING domain (UniProt Q6VVB1); chain MREAEISLLECKVCFEKFGHRQQRRPRNLSCGHVVCLACVAALAHPRTLALECPFCRRACRGCDTSD
# B11: RNF11 RING domain (UniProt Q9Y3C5); chain RDGSEKKIRECVICMMDFVYGDPIRFLPCMHIYHLDCIDDWLMRSFTCPSCMEPVDAALLSS
# B12: RNF115 RING domain (UniProt Q9Y4L5); chain TQEQVDMGLECPVCKEDYTVEEEVRQLPCNHFFHSSCIVPWLELHDTCPVCRKSLNGEDSTR
Molecule,lacZ reporter activity
KITELNPHLMCALCGGYFIDATTIVECLHSFCKTCIVRYLETNKYCPMCDVQVHKTRPLL (PCGF2 RING domain (UniProt P35227)),0
FLSKVEETFQCICCQELVFRPITTVCQHNVCKDCLDRSFRAQVFSCPACRYDLGRSYAMQ (UHRF1 RING domain (UniProt Q96T88)),0
B1 (RNF32 RING domain),0
B2 (RNF7 RING domain),0
B3 (TRIM74 RING domain),13100
B4 (TRIM28 RING domain),0
MEEMEEELKCPVCGSFYREPIILPCSHNLCQACARNILVQTPESESPQSHRAAGSGVSDY (TRIM9 RING domain (UniProt Q9C026)),0
B5 (PJA2 RING domain),2140
B6 (TRIM68 RING domain),0
B7 (TRIM32 RING domain),0
GSEEEEIPFRCFICRQAFQNPVVTKCRHYFCESCALEHFRATPRCYICDQPTGGIFNPA (RNF113B RING domain (UniProt Q8IZP6)),0
B8 (TRIM2 RING domain),0
B9 (TRIM47 RING domain),17800
B10 (NHLRC1 RING domain),0
B11 (RNF11 RING domain),0
B12 (RNF115 RING domain),0

# Block 2
# Target: Fragile X messenger ribonucleoprotein 1, C-terminal low-complexity region (Fmr1, Mus musculus, UniProt P35922)
# Method: RNA Bind-n-Seq
# Form: RNA
# Medium: in vitro
# Concentration: 200 nM
# Setting: whole 134-nt RNA, ends assumed
# Together with: 150 mM KCl
# Reference: input library
# Direction: higher = stronger binding
Strand,log2 enrichment
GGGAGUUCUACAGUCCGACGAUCCUGUGCUACACAUCGUAUGUACCGAAUCGGGGUUUUUUUGGUUUUUUUGGUUUUUUUGGGGAAAGUAUUAUGUUACGCCGUUCGGAUCUGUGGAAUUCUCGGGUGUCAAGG,-0.862
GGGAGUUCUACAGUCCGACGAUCUCAAGUCCUGUGCUACACAUCGUAUGUACCGAAUCGGCCCGGCCCGGGGCCCGGAAAGUAUUAUGUUACGCCGUUCGGAUCUGCACUUCCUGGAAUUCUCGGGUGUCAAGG,-0.493
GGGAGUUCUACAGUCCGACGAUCUGUGCUACACAUCGUAUGUACCGAAUCGGGGAAAAAAAGGGGUUUUUGGGGAAAAAAAGGGGAAAGUAUUAUGUUACGCCGUUCGGAUCUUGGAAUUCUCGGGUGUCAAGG,0.132
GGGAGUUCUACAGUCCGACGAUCAGUCCUGUGCUACACAUCGUAUGUACCGAAUCGGGUUUUUGGGUUUGGGAAAAAGGGAAAGUAUUAUGUUACGCCGUUCGGAUCUGCACUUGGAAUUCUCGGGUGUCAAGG,-0.116
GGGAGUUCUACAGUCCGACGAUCAAGUCCUGUGCUACACAUCGUAUGUACCGAAUCGGGGAAAAGGAAAAGGAAAAGGGGAAAGUAUUAUGUUACGCCGUUCGGAUCUGCACUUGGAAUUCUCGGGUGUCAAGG,-0.119
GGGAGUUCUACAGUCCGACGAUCCAAGUCCUGUGCUACACAUCGUAUGUACCGAAUCGGUUUGGUUUGGUUUUUUUGGAAAGUAUUAUGUUACGCCGUUCGGAUCUGCACUUCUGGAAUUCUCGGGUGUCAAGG,-0.629
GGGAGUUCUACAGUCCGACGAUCCUGUGCUACACAUCGUAUGUACCGAAUCGGGGUUUUUUUGGGGAAAAAGGGGAAAAAGGGGAAAGUAUUAUGUUACGCCGUUCGGAUCUGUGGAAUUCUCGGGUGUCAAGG,-0.213
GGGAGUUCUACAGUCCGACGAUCCUGUGCUACACAUCGUAUGUACCGAAUCGGGAAAAAAAGGGUUUUUUUGGGAAAAAAAGGGAAAGUAUUAUGUUACGCCGUUCGGAUCUGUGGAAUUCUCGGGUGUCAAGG,-1.51
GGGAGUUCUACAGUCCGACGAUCUCAAGUCCUGUGCUACACAUCGUAUGUACCGAAUCGGAAAGGGAAAGGGGAAAGGAAAGUAUUAUGUUACGCCGUUCGGAUCUGCACUUCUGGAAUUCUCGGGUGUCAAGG,-0.532
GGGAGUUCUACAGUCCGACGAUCUGAAGCGAGAAGCUGCCCUACCCCCAGUGAGCCCCCUGAAGGCGGCUCUCUCUGAGGAGGAGUUAGAGAAGAAAUCCAAGGCUAUCAUUGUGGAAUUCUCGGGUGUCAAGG,-0.761
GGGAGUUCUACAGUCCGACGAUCUGGCCCUGGUGGCAUGCGGGGAGGAAGAGGUGGCCUCAUGGAUCGUGCUGGUCCCGGUGGAAUGUUCAGAGGUGGCCGUGGUGGAGACAGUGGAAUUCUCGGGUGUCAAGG,0.206
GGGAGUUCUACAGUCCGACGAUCAGUCCUGUGCUACACAUCGUAUGUACCGAAUCGGGAAAAGGGAAAAGGGGAAAAGGGGAAAGUAUUAUGUUACGCCGUUCGGAUCUGCACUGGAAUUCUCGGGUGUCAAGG,0.14
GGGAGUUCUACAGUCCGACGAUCUGCUGUUCAGGUGGUGGAGAAGAAGAUGGAACCCCAGGCUGCCUGGCUACAGAGCCUGGAGGGAUGCAUGUGGACAGCCAAGAAGAAGCUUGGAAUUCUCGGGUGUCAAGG,-1.76
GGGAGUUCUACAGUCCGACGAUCGCAGGAAGUAAAAACAAAUGGAAAUGCUUCGGAUAGUGGCAGGGGUGAGGGUUGCUAAGGAAAGGGUGGGAUGGGAGUGGGUAAAGAGUUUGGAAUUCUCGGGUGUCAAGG,0.256

# Block 3
# Target: CCNA2, cyclin fold, Cln2 fusion (human)
# Method: yeast growth competition, sequencing
# Medium: yeast
# Setting: strong parent motif
# Reference: not given
# Direction: higher = stronger binding
# Starting sequence: SCAPER docking peptide (human); SNARRSLNFGGST; partner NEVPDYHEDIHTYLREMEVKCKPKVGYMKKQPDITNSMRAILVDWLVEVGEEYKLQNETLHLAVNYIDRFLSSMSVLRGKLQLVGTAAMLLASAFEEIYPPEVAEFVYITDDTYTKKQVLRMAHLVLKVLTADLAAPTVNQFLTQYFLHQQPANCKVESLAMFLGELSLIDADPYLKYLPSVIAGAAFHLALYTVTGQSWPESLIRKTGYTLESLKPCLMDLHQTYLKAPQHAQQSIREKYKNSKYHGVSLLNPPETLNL
Change,normalised enrichment score
SNARRSLNFGLST [G11L],5.16
SNARRSLNFGVST [G11V],7.05
SNARRSLNFGWST [G11W],5.71
SNALRSLNFGGST [R4L],1.13
SNARRSLNGGGST [F9G],0.338
SNARRSLNFGGIT [S12I],6.83
SNARRSLNFGGET [S12E],6.13
SNARRSLLFGGST [N8L],4.27
SNARRSLNFGGSR [T13R],6.18
SLARRSLNFGGST [N2L],5.27
SNARMSLNFGGST [R5M],3.01
SNARRSLNFGIST [G11I],7.02
SNARRSLNFGEST [G11E],5.43
SNARRSLSFGGST [N8S],6.66
SNARRSLNFWGST [G10W],6.24
SNWRRSLNFGGST [A3W],3.04
SNARRSLMFGGST [N8M],5.12
SNARRSDNFGGST [L7D],1.1
SNARRSLNFSGST [G10S],5.43
SNARRSINFGGST [L7I],4.57
QNARRSLNFGGST [S1Q],5.67
SNAVRSLNFGGST [R4V],3.65
SNARKSLNFGGST [R5K],5.35
SNARRSLNFGGHT [S12H],6.35
SNARRNLNFGGST [S6N],5.37

# Block 4
# Target: ABI1, truncated, D143A, DHFR fusion (Arabidopsis thaliana, UniProt P49597)
# Method: DHFR PCA, dose-response
# Medium: yeast
# Setting: Hill fit, mean, not affinity
# Together with: (+)-ABA, dose series
# Direction: lower = more sensitive
# Starting sequence: PYL1, truncated, DHFR fusion (Arabidopsis thaliana, UniProt Q8VZS8); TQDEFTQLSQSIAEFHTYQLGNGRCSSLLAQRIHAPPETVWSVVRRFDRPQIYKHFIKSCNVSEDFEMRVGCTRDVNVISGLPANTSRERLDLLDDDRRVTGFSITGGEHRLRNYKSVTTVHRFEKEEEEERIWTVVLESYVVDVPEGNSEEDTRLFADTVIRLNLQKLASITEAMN
Change,ABA EC50 [µM]
L156K,15.6
D92N,29
C72Q,3.97
Q167A,0.968
Q51H,2.23
V62A,41.4
D153M,336
F124A,4.06
K116I,196
H55K,0.478
L164H,0.827
I162H,655
I79D,131
R32P,5.43
V142W,73.1
F15K,257
E127H,3.14
C72S,2.67
Y141M,530
S26K,12
T86F,0.874
E151Q,4.74
D48E,9.89
L94F,2.32
M68Y,6.9

# For quick reference, copied from above (block 2):
Strand,log2 enrichment
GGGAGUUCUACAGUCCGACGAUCAGUCCUGUGCUACACAUCGUAUGUACCGAAUCGGGUUUUUGGGUUUGGGAAAAAGGGAAAGUAUUAUGUUACGCCGUUCGGAUCUGCACUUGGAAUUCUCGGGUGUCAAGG,-0.116
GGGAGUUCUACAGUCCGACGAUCAAGUCCUGUGCUACACAUCGUAUGUACCGAAUCGGGGAAAAGGAAAAGGAAAAGGGGAAAGUAUUAUGUUACGCCGUUCGGAUCUGCACUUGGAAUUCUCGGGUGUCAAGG,-0.119
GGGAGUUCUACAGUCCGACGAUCCAAGUCCUGUGCUACACAUCGUAUGUACCGAAUCGGUUUGGUUUGGUUUUUUUGGAAAGUAUUAUGUUACGCCGUUCGGAUCUGCACUUCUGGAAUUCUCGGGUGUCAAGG,-0.629
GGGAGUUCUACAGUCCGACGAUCCUGUGCUACACAUCGUAUGUACCGAAUCGGGGUUUUUUUGGGGAAAAAGGGGAAAAAGGGGAAAGUAUUAUGUUACGCCGUUCGGAUCUGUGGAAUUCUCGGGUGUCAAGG,-0.213
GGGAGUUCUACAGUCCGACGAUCCUGUGCUACACAUCGUAUGUACCGAAUCGGGAAAAAAAGGGUUUUUUUGGGAAAAAAAGGGAAAGUAUUAUGUUACGCCGUUCGGAUCUGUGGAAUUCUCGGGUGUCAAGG,-1.51
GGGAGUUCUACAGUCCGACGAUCUCAAGUCCUGUGCUACACAUCGUAUGUACCGAAUCGGAAAGGGAAAGGGGAAAGGAAAGUAUUAUGUUACGCCGUUCGGAUCUGCACUUCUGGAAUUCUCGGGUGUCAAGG,-0.532
